Measured values gathered from unrelated publications.
Numbered parts are unrelated; each lists some results of a single study.

Block 1 — technique: protein binding microarray; form: double-stranded DNA, one strand shown; medium: in vitro; concentration: not given; relative to: not given; direction: higher = stronger binding
Target: Histone acetyltransferase KAT6A, both winged helices, GST fusion (KAT6A, Homo sapiens, UniProt Q92794, residues 1-181)
Setting: 8-mer, flanks averaged, mean of 2 arrays, mostly near background
Target sequence (chain): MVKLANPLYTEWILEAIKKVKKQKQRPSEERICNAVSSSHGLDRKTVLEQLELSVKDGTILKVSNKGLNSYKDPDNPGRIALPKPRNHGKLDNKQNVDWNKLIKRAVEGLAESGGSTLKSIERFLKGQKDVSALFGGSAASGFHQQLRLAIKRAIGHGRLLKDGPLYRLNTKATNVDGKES
Sequence | E-score
CATCCTTA | -0.137
AATATCGT | -0.212
CACGTCGA | -0.0673
AGCCGACG | 0.317
CAGAGCAG | -0.186

Block 2 — technique: protein-binding microarray; form: double-stranded DNA, one strand shown; medium: in vitro; concentration: not given; direction: higher = stronger binding
Target: Protein C-ets-1 (ETS1, Homo sapiens, UniProt P14921, residues 1-441, full length assumed)
Setting: k-mer, scored over probes, only values ≥0.25
Construct (chain): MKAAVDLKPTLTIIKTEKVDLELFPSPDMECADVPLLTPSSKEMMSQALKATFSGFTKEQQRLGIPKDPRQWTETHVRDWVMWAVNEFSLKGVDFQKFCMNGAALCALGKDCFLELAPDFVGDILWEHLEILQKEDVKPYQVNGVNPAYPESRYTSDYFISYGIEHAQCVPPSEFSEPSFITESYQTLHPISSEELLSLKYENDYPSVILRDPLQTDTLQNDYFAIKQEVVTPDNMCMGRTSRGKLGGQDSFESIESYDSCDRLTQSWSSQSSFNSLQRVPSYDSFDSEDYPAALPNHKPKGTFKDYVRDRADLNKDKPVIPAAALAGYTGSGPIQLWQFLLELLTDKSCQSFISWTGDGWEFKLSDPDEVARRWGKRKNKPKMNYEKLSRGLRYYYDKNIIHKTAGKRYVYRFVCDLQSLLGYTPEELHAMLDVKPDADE
Sequence | E-score
ATTACCGG | 0.27
ATCCGGTG | 0.481
ATATCCTC | 0.338

Block 3 — technique: protein-binding microarray; form: double-stranded DNA, one strand shown; medium: in vitro; concentration: 940 nM top; setting: 60-bp whole probe; added: salmon DNA 0.4 mg/ml; relative to: random background probes; direction: higher = stronger binding; all sequences stand within: GCCTAGCAC … GTCTTGATTCGCTTGACGCTGCTG
Target: Interferon regulatory factor 5, full length, phosphomimetic (IRF5, Homo sapiens, UniProt Q13568-2, residues 1-514, S451D/S453D/S456D/S462D)
Sequence | fitted relative affinity
GACGGTTTCGCGTATCGGGACGTGCTA | 4.6 z-score
TTAGGACTGCTACTGCTTGAGTGCTAG | -0.32 z-score
TCAGATATAGGATAACGAGCCGTGCTA | -0.426 z-score
GACGGCTTCGGTCTCGGGACGTGCTAG | 0.0949 z-score
TTTTGTTGTTTTTTGGTTTCGTGCTAG | 4.03 z-score
GACGGACTGCTTATCCTGAGGTGCTAG | -0.25 z-score

Other studies, line by line
Molecule | target | assay | test system | setting | scale | measurement | result
PhoQ, residues 284 288 289 292 302 303 SSTLSG | PhoP, residues 12 14 15 18 19 AGCRL (Escherichia coli, UniProt P23836) | Sort-seq, measured: YFP reporter | E. coli | PhoQ-PhoP variant library, added: 10 µM Mg2+ | relative to: high Mg2+ state, higher = stronger signaling | fold induction | 5.63

Repeated from above (block 2):
Sequence | E-score
ATATCCTC | 0.338
